Measured values from different studies.
A part holds a random share of what one study measured.

Block 1
Organism: SARS-CoV-2
Observed: cytopathic effect
Cells: Vero E6
Tested at: 10 µM
| Compound | inhibition [%] |
| --- | --- |
| O=C(/C=C/c1ccc2ccc(C(F)(F)F)cc2n1)c1ccncc1 | 0.32 |
| CC(C)Nc1cccnc1N1CCN(C(=O)c2cc3cc(NS(C)(=O)=O)ccc3[nH]2)CC1.CS(=O)(=O)O | 2.9 |
| CN1CCN2c3ccccc3Cc3ccccc3C2C1 (centres unmarked) | -2.4 |
| C[C@H]1COC2=C1C(=O)C(=O)c1c2ccc2c1CCCC2(C)C | -11.7 |
| O=C1C(Cl)=C(Cl)C(=O)C(Cl)=C1Cl | -25.1 |
| C=C1c2cccc(O)c2C(=O)C2=C(O)[C@]3(O)C(=O)C(C(N)=O)=C(O)[C@@H](N(C)C)[C@@H]3[C@@H](O)[C@H]12 | -2.4 |
| CN1Cc2ccccc2[C@@H]2c3cccc4[nH]cc(c34)C[C@H]21 | 8.3 |
| COc1cc(C(=S)N2CCOCC2)ccc1O | -1 |
| C[C@@](Cc1ccc(O)c(O)c1)(NN)C(=O)O | -2.2 |

Block 2
Target: Histone acetyltransferase KAT6A, winged helix 2, GST fusion (KAT6A, Homo sapiens, UniProt Q92794, residues 85-181)
Technique: protein binding microarray
Molecule type: double-stranded DNA, one strand shown
Matrix: in vitro
Tested at: not given
Notes: 8-mer, flanks averaged, mean of 2 arrays, mostly near background
Baseline: not given
Direction: higher = stronger binding
Construct (chain): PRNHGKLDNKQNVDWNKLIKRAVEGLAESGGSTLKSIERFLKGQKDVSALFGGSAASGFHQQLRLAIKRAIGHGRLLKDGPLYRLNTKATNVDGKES
| Oligonucleotide | E-score |
| --- | --- |
| AGGGGCAT | -0.133 |
| CGAGAAAG | 0.018 |
| GAGACTCA | -0.0131 |
| CAAAAACG | 0.0824 |
| GAGGGACC | 0.101 |
| CTTAATTC | 0.0604 |
| AGAGGCGG | 0.195 |
| ATAGACTC | -0.216 |

Block 3
Cell line: HEK-293T-ACE2
Tested at: concentration not given
Baseline: vehicle
| Structure (SMILES) | cell number |
| --- | --- |
| CNC[C@H](O)[C@@H](O)[C@H](O)[C@H](O)CO.CNC[C@H](O)[C@@H](O)[C@H](O)[C@H](O)CO.C[C@@H](O[C@H]1OCCN(Cc2nn(P(=O)(O)O)c(=O)[nH]2)[C@H]1c1ccc(F)cc1)c1cc(C(F)(F)F)cc(C(F)(F)F)c1 | 99.1% |
| Cl.N=C(N)N | 102% |
| NC(=O)CCC(N)C(=O)O (racemic) | 103% |
| Cc1ccc(-n2nccn2)c(C(=O)N2CCN(c3nc4cc(Cl)ccc4o3)CC[C@H]2C)c1 | 96.5% |
| CNC(=O)c1cc(Oc2ccc(NC(=O)Nc3ccc(Cl)c(C(F)(F)F)c3)c(F)c2)ccn1 | 89.9% |
| NCC[C@H](O)C(=O)N[C@@H]1C[C@H](N)[C@@H](O[C@H]2O[C@H](CN)[C@@H](O)[C@H](O)[C@H]2O)[C@H](O)[C@H]1O[C@H]1O[C@H](CO)[C@@H](O)[C@H](N)[C@H]1O.O=S(=O)(O)O.O=S(=O)(O)O | 101% |
| OCCN(CCO)c1nc(N2CCCCC2)c2nc(N(CCO)CCO)nc(N3CCCCC3)c2n1 | 108% |
| CCC(=O)O[C@@H](O[P@](=O)(CCCCc1ccccc1)CC(=O)N1C[C@H](C2CCCCC2)C[C@H]1C(=O)[O-])C(C)C.[Na+] | 100% |

Block 4
Target: Replicase polyprotein 1ab, polymerase (rep, Severe acute respiratory syndrome coronavirus 2, UniProt P0DTD1)
Observed: enzyme activity
Action: inhibitor
Tested at: 20 µM
| Structure (SMILES) | inhibition |
| --- | --- |
| Cc1nc2n(c(=O)c1CCN1CCC(c3noc4cc(F)ccc34)CC1)CCCC2O (centres unmarked) | -7.25% |
| NS(=O)(=O)c1ccc(C(=O)O)cc1 | -1% |
| NS(=O)(=O)Cc1noc2ccccc12 | 0.99% |
| O=C(O)c1ccccc1-c1ccc(C(F)(F)F)cc1 | 3.33% |
| COc1cccc(OC)c1C(=O)N[C@@H]1C(=O)N2[C@@H]1SC(C)(C)[C@@H]2C(=O)O | 19.9% |
| CN(c1ccccc1CNc1nc(Nc2ccc3c(c2)CC(=O)N3)ncc1C(F)(F)F)S(C)(=O)=O | -12.4% |
| N[C@H]1C[C@@H]1c1ccc(-c2cccc(O)c2)cc1 | 1.8% |
| CCCC(CCC)C(N)=O | 0.75% |
| CCC(=O)O[C@@H]1CC(=O)O[C@H](C)C/C=C/C=C/[C@H](OC(C)=O)[C@H](C)C[C@H](CC=O)[C@H](O[C@@H]2O[C@H](C)[C@@H](O[C@H]3C[C@@](C)(OC(C)=O)[C@@H](OC(=O)CC)[C@H](C)O3)[C@H](N(C)C)[C@H]2O)[C@H]1OC | -1.6% |
| COc1cc2c(cc1C(F)(F)F)N(C(=O)Nc1cc(F)cc(-c3cccnc3)c1)CC2 | -3.6% |
| O=C(NCCCN1CCC2(CC1)OCc1ccccc12)[C@H]1CCCN1Cc1ccccc1 | -0.56% |
| Cc1ccc(C(=O)Cn2c3c(sc2=N)CCCC3)cc1 | 0.53% |
| c1nc2c(NC3CCCCC3)nc(Nc3ccc(N4CCOCC4)cc3)nc2[nH]1 | 1.87% |
| CS(=O)(=O)CS(=O)(=O)OCCCl | 2.31% |
| NCCc1c[nH]c2ccc(C(N)=O)cc12 | -8.79% |
| O=C(Nc1cc(C(F)(F)F)cc(C(F)(F)F)c1)c1cc(Cl)ccc1O | -5.33% |
| C[C@]12CCC(=O)C=C1CC[C@@H]1[C@@H]2C(=O)C[C@]2(C)C(=O)CC[C@@H]12 | -2.77% |
| CC(=O)O/N=C1\C(=O)N(Cc2cc(Cl)ccc2Cl)c2ccc(Cl)cc21 | 0.21% |
| C[C@]12N[C@H](Cc3ccccc31)c1ccccc12 | 4.07% |
| COc1ccc(S(=O)(=O)N(CCO)c2ccccc2CN(C)C/C=C/c2ccc(Cl)cc2)cc1 | -0.45% |
| COc1ccc(CN2CCNCC2)c(OC)c1OC | 5.17% |
| Cc1c(N)nc([C@H](CC(N)=O)NC[C@H](N)C(N)=O)nc1C(=O)N[C@H](C(=O)N[C@H](C)[C@@H](O)[C@H](C)C(=O)N[C@H](C(=O)NCCc1nc(-c2nc(C(=O)NCCCNCCCCN)cs2)cs1)[C@@H](C)O)[C@@H](O[C@@H]1O[C@@H](CO)[C@@H](O)[C@H](O)[C@@H]1O[C@@H]1O[C@H](CO)[C@@H](O)[C@H](OC(N)=O)[C@@H]1O)c1cnc[nH]1 | -8.66% |
| NC(=O)CC[C@@H]1NC(=O)[C@H](Cc2ccccc2)NC(=O)[C@H](Cc2ccc(O)cc2)NC(=O)[C@@H](N)CSSC[C@@H](C(=O)N2CCC[C@H]2C(=O)N[C@@H](CCCN=C(N)N)C(=O)NCC(N)=O)NC(=O)[C@H](CC(N)=O)NC1=O | 2.17% |
| Cc1cc(-c2nc(C(=O)Nc3cn(C4CCOCC4)nc3C(N)=O)co2)ccn1 | -0.78% |
| CC(C)NCC(O)c1cc(O)cc(O)c1 (centres unmarked) | 23.5% |
